# Assay results gathered from unrelated publications.
# Parts stem from different laboratories: compare values within a part only. Substitutions count along the parent as printed.

# Block 1 — technique: RNA Bind-n-Seq; form: RNA; sample: in vitro; concentration: 200 nM; notes: whole 134-nt RNA, ends assumed; together with: 150 mM KCl; relative to: input library; reading: higher = stronger binding
# Target: Fragile X messenger ribonucleoprotein 1, C-terminal low-complexity region (Fmr1, Mus musculus, UniProt P35922)
# Shared flanks, not repeated: GGGAGUUCUACAGUCCGACGAUC … UGGAAUUCUCGGGUGUCAAGG
Sequence,log2 enrichment
CAUCCUUUGGGCCCCUCAAGGCCUUCAACCUGGUCAAGGACAGUGCCACGGGGCUCUCCAAGGGCUACGCCUUCUGUGAGUACGUGGACA,-1.44
UCCUGUGCUACACAUCGUAUGUACCGAAUCGGGGAAAAAAAGGGGAGGGGAAAAAGGGGAAAGUAUUAUGUUACGCCGUUCGGAUCUGCA,0.408
UCCUCAAGUCCUGUGCUACACAUCGUAUGUACCGAAUCGGAGGAGGAAAGGAAAGUAUUAUGUUACGCCGUUCGGAUCUGCACUUCCAGC,-0.628
ACCAUGGAGGUGGGCAUCUUUGGGAAGUGGGGCAAGGGGGGGAUAGGGAGGGGGGUAACACUUUGGGAACAGGUGGUCCCAGGUCGUUUC,0.51
GCAGGAAGUAAAAACUAAUGGAAAUGCUUCGGAUAGUGGCAGGGGUGGGGGUUGCUAAGGAAAGGGUGGGAUGGGAGUGGGUAAAGAGUU,0.235
CUGUGCUACACAUCGUAUGUACCGAAUCGGGGUUUUUUUGGUUUUUUUGGGUUUUUUUGGGGAAAGUAUUAUGUUACGCCGUUCGGAUCU,-0.308
CUGUGCUACACAUCGUAUGUACCGAAUCGGGGAAAAAGGGGAAAAAAAGGGGAAAAAGGGGAAAGUAUUAUGUUACGCCGUUCGGAUCUG,-0.279
AGUCCUGUGCUACACAUCGUAUGUACCGAAUCGGGGCCCCGGGGCCCCGGGCCCCGGAAAGUAUUAUGUUACGCCGUUCGGAUCUGCACU,0.736
UCAAGUCCUGUGCUACACAUCGUAUGUACCGAAUCGGUUUGGUUUGGGGUUUGGGAAAGUAUUAUGUUACGCCGUUCGGAUCUGCACUUC,-0.685

# Block 2 — target: CCNB3, cyclin fold, Cln2 fusion (human); technique: yeast growth competition, sequencing; sample: yeast; notes: weak parent motif; relative to: not given; reading: higher = stronger binding
# Starting sequence: CDKN1A docking peptide (human); SKACRRLFGPVDS
Substitution,normalised enrichment score
R5T,-0.0456
K2A,0.465
C4D,-0.0381
R5C,0.342

# Block 3 — technique: protein binding microarray; form: double-stranded DNA, one strand shown; sample: in vitro; concentration: not given; relative to: not given; reading: higher = stronger binding
# Target: Histone acetyltransferase KAT6A, winged helix 2, GST fusion (KAT6A, Homo sapiens, UniProt Q92794, residues 85-181)
# Notes: 8-mer, flanks averaged, mean of 2 arrays, mostly near background
# Residues (chain): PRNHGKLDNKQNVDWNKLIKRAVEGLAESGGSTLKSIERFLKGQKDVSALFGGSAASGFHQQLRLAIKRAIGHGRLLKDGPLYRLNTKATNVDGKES
Sequence,E-score
CAGTTCTA,-0.0567
CCCTTAAG,0.0759
TAGAATAA,-0.0467
AACATTGA,-0.0278
CTAAAATA,-0.0744
ATATCTCA,-0.0268
CAAAGGGG,0.0618
GTAGTGTA,-0.0387

# Single results of other studies
Molecule,target,assay,test system,conditions,scale,endpoint,result
"PhoQ, residues 284 288 289 292 302 303 SCEHLI","PhoP, residues 12 14 15 18 19 STHWV (Escherichia coli, UniProt P23836)","Sort-seq, measured: YFP reporter",E. coli,"PhoQ-PhoP variant library, together with: 10 µM Mg2+","relative to: high Mg2+ state, higher = stronger signaling",fold induction,0.717
